Measured values of several laboratories.
Numbered parts are unrelated; each lists some results of a single study. Substitutions count along the parent as printed.

Study 1
Target: Histone acetyltransferase KAT6A, both winged helices, GST fusion (KAT6A, Homo sapiens, UniProt Q92794, residues 1-181)
Method: protein binding microarray
Form: double-stranded DNA, one strand shown
Medium: in vitro
Tested at: not given
Notes: 8-mer, flanks averaged, mean of 2 arrays, mostly near background
Baseline: not given
Reading: higher = stronger binding
Quantity: E-score
Construct (chain): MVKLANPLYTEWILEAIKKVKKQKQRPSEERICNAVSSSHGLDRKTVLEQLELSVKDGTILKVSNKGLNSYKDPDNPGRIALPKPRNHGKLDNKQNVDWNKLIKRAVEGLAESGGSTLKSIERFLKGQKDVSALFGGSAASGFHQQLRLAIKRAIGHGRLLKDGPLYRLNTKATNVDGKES
GTACCGAC: 0.135
CCATTACA: -0.0632
CTCAGTAA: 0.0812
AACGATGT: -0.0587
TCCGTAAA: 0.21
AGCCCGTG: 0.196
ATCCGAAA: 0.0616
GAGTGCGC: 0.187
CATTTCAC: -0.0764
CCGGAACA: 0.15
GACAAAAA: 0.0325
AAGCCGTA: 0.29
AAACTAGC: -0.0186
CAAATTCA: -0.00448
AAGTATGA: -0.0991
CACCCAGA: -0.0469
CGTTTAAA: 0.0481
CTGATGCA: -0.0202
CCTGATGC: 0.0658
CAGCACAG: -0.0982
AATACCCC: 0.0123
AGATGTGA: -0.0199
TACCTGAA: -0.0572

Study 2
Target: DDIT3, bZIP domain (human)
Method: DHFR protein complementation
Medium: yeast
Notes: single substitutions, most at no-binding floor
Baseline: wild-type JUN-FOS pair
Reading: higher = stronger binding
Quantity: binding fitness
Parent: JUN, bZIP domain (human); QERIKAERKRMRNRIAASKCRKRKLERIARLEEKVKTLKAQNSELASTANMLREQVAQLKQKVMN; partner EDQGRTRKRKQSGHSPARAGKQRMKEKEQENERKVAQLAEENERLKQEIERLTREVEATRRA
A29T: -0.053 natural log
Q41E: 0.12 natural log
V35G: -0.875 natural log
A40Q: 0.177 natural log
A40D: -0.0174 natural log
T48H: 0.0538 natural log
A29E: -0.0967 natural log
M51I: -0.0533 natural log
S43D: 0.0763 natural log
A46G: -0.405 natural log
R53F: -1.08 natural log
L38M: -0.126 natural log
R30Y: 0.00568 natural log
V56W: -0.073 natural log
A40S: -0.0139 natural log
R30W: 0.102 natural log
E32V: -0.21 natural log
Q41S: -1.01 natural log
S43W: -0.108 natural log
T37K: 0.0665 natural log
L45T: -1.39 natural log
Q58S: 0.0163 natural log
Q55R: -0.0119 natural log
Q55D: -0.662 natural log
L52V: -1.06 natural log

Study 3
Target: ABI1, truncated, D143A, DHFR fusion (Arabidopsis thaliana, UniProt P49597)
Method: DHFR PCA, dose-response
Medium: yeast
Notes: Hill fit, mean, not affinity
Added: (+)-ABA, dose series
Reading: lower = more sensitive
Quantity: ABA EC50
Parent: PYL1, truncated, DHFR fusion (Arabidopsis thaliana, UniProt Q8VZS8); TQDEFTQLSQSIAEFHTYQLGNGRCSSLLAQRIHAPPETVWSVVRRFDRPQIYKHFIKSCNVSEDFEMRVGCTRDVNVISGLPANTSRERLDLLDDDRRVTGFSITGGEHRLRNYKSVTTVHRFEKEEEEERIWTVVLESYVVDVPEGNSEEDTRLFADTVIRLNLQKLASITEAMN
N114H: 8.37 µM
S11C: 1.78 µM
P37A: 6.54 µM
V137A: 157 µM
I172M: 8.39 µM
D95K: 134 µM
S63F: 20.9 µM
I33A: 121 µM
M176H: 3.3 µM
F15D: 66.3 µM
D92F: 137 µM
P146K: 624 µM
V145K: 27.8 µM
D75M: 1.02 µM
L93C: 4.33 µM
C60V: 6.03 µM
D97I: 4.71 µM
R69T: 2.09 µM
E125F: 1.46 µM
E38C: 10.9 µM
A35E: 681 µM
L166H: 13.3 µM
V118C: 2.81 µM
N114Q: 89.8 µM
S171G: 3.47 µM

Study 4
Target: CCNB3, cyclin fold, Cln2 fusion (human)
Method: yeast growth competition, sequencing
Medium: yeast
Notes: weak parent motif
Baseline: not given
Reading: higher = stronger binding
Quantity: normalised enrichment score
Parent: RRM2 docking peptide (human); SKTARRIFQEPTE; partner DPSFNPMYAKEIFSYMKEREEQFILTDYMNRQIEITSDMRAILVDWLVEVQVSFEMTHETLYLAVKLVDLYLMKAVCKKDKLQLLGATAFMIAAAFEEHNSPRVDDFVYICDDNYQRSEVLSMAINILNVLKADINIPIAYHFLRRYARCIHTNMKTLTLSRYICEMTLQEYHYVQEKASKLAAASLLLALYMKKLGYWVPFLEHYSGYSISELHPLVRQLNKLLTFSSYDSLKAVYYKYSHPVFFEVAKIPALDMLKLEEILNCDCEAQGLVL
SATARRIFQEPTE [K2A]: 0.0879
SKTARRIAQEPTE [F8A]: 0.22
SKTARRIFQEPTA [E13A]: 0.245
SKTARRAFQEPTE [I7A]: 0.186
SKTARRIFQAPTE [E10A]: 0.155
SKTARRIFAEPTE [Q9A]: 0.218

Study 5
Target: Centromere-binding protein 1, full length, N-terminal tag (CBF1, Saccharomyces cerevisiae, UniProt P17106, residues 1-351)
Sequence of UniProt P17106 (whole entry, looked up): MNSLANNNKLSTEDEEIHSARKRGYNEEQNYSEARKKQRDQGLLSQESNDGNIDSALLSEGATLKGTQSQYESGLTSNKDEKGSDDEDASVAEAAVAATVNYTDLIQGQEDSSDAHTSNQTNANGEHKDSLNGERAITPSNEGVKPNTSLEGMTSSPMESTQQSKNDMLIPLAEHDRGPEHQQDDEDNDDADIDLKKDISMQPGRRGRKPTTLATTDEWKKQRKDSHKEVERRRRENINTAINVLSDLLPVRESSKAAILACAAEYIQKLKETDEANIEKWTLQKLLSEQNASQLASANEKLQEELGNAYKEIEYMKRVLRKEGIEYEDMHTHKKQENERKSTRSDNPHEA
Method: protein-binding microarray
Form: double-stranded DNA, one strand shown
Medium: in vitro
Tested at: 0.8 µM
Notes: whole 60-bp probe, no competitor
Reading: higher = stronger binding
Quantity: fluorescence intensity
GAATATATACATGTCAACACCACCATGACTATATAGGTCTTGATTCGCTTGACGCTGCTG: 557 a.u.
GAATTTACAGGCTAAGTGGTGTCACTATCCCCATAGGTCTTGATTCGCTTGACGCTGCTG: 497 a.u.
TGTACGAAGCTATTGCACGTTCTTATAGTAGTTAGGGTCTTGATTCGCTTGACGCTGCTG: 595 a.u.
GAAAGACTTCTCCATTTTCACGTGCTAAAAAAGTAGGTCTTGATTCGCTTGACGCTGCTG: 8240 a.u.
CTACTATACATCAACATCAGCATCAAAATTAACTTCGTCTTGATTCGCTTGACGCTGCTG: 521 a.u.
CTAACGCCAATAGTAAACGTCACCCCGAGGTTTTTCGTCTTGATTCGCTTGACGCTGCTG: 474 a.u.
CTAGTTACTACTCACCTGCTCTCACCGACTCATTTCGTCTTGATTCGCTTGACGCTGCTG: 617 a.u.
CTATCCTTTCACGTGATGCGCTGGGATGTTATCTTCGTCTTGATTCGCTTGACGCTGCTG: 16400 a.u.
CTACCATTTTTTTCCCTGATGTTCAGCAAACCGTTCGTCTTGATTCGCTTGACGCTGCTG: 553 a.u.
GAATCCTTTTTGCTGCGCGTGGAAAAGCGTGTCTAGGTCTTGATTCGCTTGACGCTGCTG: 536 a.u.
CCTAACTACTATAGTCACGTGCGATAGCTTCGTACAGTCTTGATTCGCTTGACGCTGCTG: 14100 a.u.
TGTACGAAGCTATACAACATCAGTATAGTAGTTAGGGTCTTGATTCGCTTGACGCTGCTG: 557 a.u.
CCTAACTACTATAATGTGATTTGATAGCTTCGTACAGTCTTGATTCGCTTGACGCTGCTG: 593 a.u.
CTATTCAAAGCCGCACACGTTTCTTTTTCCGAATTCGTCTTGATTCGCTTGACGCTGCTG: 580 a.u.
GAAGTAAAGGACCATCACGCCACATCACGTGCATAGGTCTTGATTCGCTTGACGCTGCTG: 14100 a.u.
GAAGATTATGGGCCGCTCGTGACAGTAAAGGAATAGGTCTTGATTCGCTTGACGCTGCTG: 1310 a.u.
CTATTCAAGCAAGTACACGTGCGCAAGTTGTACTTCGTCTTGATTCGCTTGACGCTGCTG: 5470 a.u.
GAAAGCTAAGAATTTCACATGTTGTTGAACTTATAGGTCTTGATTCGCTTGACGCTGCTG: 591 a.u.
CTAGATGAGAATACTAACACCACGAACTCAAATTTCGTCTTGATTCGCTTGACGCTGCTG: 522 a.u.
GAATTTCGACTTTCTCACGCTGATGATGATGACTAGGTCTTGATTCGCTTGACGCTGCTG: 581 a.u.
GAATAATATACTGGTAGTGTGACTACTAGTTGATAGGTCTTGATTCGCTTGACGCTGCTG: 983 a.u.
GAAAATTACTACCATCACCTGCATCAAATTCCATAGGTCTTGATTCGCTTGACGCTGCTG: 729 a.u.
CTACATCCTTTAAAACACGTTATTCTCTATTTTTTCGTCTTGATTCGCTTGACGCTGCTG: 597 a.u.
TGTACGAAGCTATATTGCGTGTATATAGTAGTTAGGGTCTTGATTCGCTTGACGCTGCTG: 515 a.u.

Repeated from above (study 1):
AATACCCC: 0.0123
AAGTATGA: -0.0991
AGATGTGA: -0.0199
CAAATTCA: -0.00448
CCTGATGC: 0.0658
CTGATGCA: -0.0202
TCCGTAAA: 0.21
AACGATGT: -0.0587
CCGGAACA: 0.15
AAACTAGC: -0.0186
CACCCAGA: -0.0469
